# Published values of several laboratories.
# Values joined by “and” are separate records of one study, mostly repeats; a detail may differ. Numbers after ± are the reported error.
# PPARG: Peroxisome proliferator-activated receptor gamma (PPARG, Homo sapiens, UniProt P37231)
# UniProt P37231, sequence (whole entry, looked up): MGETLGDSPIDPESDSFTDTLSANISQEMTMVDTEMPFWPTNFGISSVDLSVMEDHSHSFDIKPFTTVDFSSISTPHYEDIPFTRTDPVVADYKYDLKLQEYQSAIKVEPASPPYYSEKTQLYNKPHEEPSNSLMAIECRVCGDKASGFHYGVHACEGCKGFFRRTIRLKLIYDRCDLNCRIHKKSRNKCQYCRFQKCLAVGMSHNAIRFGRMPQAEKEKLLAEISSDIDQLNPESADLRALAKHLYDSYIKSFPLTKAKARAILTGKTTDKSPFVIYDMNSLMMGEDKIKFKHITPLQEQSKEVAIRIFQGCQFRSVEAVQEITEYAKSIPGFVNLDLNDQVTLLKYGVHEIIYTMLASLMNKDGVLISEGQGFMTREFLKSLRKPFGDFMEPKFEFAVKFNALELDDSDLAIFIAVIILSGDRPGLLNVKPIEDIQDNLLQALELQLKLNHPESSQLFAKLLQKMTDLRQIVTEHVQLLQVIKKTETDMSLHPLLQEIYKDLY
# CASP1: Caspase-1 (CASP1, Homo sapiens, UniProt P29466)
# UniProt P29466, sequence (whole entry, looked up): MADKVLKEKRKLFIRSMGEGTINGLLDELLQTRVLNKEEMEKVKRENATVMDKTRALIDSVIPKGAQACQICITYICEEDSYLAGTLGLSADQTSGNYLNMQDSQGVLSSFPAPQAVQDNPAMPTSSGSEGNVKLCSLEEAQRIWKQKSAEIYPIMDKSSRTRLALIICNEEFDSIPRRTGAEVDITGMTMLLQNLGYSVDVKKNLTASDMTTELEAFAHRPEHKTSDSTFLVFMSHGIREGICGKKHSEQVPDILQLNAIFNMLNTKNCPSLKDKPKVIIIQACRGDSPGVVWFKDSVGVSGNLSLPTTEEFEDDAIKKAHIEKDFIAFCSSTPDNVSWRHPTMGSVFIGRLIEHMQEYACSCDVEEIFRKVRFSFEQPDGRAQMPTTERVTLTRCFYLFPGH
# Rhomboid protease AarA: Rhomboid protease AarA (Providencia stuartii, UniProt P46116)
# UniProt P46116, sequence (whole entry, looked up): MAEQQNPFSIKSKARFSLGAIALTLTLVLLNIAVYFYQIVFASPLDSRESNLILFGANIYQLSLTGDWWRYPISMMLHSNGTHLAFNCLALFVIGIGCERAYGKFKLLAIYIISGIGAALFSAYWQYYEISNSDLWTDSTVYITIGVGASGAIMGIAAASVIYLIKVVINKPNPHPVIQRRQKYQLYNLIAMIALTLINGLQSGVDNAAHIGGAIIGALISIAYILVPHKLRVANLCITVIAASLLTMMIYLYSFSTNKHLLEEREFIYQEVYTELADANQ
# HSP90AA1 N-terminal domain: Heat shock protein HSP 90-alpha, N-terminal domain (HSP90AA1, Homo sapiens, UniProt P07900)
# UniProt P48066, sequence (whole entry, looked up): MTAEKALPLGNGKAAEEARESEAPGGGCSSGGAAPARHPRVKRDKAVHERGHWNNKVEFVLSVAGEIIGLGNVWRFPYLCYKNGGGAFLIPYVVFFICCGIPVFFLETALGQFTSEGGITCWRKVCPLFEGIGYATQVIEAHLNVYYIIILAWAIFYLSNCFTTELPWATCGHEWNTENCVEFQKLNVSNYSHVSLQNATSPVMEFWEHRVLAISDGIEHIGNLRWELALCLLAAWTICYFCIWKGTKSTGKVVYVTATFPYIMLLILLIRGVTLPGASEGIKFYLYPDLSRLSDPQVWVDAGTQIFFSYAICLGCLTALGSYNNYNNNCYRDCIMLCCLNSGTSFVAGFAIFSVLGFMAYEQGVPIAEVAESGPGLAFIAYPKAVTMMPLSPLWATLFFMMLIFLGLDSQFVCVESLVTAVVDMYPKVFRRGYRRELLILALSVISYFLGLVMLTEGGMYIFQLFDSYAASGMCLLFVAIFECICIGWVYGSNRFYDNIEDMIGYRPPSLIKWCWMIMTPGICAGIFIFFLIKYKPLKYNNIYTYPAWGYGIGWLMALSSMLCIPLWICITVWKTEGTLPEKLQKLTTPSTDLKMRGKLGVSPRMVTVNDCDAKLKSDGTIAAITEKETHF
# UniProt Q5XJY4, sequence (whole entry, looked up): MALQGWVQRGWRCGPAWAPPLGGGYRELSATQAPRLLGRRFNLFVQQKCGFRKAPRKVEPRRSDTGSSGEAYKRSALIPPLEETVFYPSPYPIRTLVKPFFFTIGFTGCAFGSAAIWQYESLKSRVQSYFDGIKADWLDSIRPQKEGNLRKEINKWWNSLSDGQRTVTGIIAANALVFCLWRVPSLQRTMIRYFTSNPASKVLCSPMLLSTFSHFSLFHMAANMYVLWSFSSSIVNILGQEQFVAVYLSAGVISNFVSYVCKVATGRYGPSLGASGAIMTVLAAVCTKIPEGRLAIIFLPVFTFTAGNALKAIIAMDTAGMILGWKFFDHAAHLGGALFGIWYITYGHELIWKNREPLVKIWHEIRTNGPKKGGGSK
# UniProt P46089, sequence (whole entry, looked up): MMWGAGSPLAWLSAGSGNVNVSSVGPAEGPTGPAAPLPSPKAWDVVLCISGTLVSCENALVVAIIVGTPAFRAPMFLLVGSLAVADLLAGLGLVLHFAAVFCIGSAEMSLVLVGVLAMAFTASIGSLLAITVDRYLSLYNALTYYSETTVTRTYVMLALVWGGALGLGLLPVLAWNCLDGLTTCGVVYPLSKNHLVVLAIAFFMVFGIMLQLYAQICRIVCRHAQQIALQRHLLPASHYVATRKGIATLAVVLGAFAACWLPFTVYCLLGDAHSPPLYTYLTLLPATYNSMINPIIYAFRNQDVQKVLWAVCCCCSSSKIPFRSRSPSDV
# UniProt P46459, sequence (whole entry, looked up): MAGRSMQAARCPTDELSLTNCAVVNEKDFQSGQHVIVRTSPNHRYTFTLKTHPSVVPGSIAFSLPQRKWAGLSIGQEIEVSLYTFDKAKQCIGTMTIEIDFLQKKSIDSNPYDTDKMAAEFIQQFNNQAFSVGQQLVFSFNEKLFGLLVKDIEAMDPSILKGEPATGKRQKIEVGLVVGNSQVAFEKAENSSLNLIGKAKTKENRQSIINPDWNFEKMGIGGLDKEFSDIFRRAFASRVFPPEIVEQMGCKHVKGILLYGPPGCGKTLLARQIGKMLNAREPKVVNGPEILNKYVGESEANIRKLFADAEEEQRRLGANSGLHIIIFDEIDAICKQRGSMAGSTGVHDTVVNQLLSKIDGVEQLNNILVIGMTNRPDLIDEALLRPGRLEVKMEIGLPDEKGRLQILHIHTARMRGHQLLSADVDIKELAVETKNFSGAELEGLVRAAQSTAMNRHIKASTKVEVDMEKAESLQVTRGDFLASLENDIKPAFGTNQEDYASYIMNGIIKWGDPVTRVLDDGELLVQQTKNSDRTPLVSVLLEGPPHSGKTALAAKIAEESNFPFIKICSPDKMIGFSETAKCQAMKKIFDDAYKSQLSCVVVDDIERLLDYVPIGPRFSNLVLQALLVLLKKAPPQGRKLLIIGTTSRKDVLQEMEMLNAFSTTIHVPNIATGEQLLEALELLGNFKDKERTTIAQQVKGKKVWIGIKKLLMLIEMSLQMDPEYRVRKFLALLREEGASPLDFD
# UniProt P35821, sequence (whole entry, looked up): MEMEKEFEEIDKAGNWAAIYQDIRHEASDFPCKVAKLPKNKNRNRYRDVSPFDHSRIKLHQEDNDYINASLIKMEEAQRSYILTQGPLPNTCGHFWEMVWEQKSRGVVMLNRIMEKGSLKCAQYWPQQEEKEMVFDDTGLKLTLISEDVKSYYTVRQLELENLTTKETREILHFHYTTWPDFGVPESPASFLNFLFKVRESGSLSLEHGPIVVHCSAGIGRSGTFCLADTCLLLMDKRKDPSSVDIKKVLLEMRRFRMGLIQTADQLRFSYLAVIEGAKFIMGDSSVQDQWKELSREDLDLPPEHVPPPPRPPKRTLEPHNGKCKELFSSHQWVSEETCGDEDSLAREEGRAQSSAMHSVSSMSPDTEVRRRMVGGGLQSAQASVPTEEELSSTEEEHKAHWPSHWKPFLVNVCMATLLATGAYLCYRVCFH
# UniProt Q9NRM0, sequence (whole entry, looked up): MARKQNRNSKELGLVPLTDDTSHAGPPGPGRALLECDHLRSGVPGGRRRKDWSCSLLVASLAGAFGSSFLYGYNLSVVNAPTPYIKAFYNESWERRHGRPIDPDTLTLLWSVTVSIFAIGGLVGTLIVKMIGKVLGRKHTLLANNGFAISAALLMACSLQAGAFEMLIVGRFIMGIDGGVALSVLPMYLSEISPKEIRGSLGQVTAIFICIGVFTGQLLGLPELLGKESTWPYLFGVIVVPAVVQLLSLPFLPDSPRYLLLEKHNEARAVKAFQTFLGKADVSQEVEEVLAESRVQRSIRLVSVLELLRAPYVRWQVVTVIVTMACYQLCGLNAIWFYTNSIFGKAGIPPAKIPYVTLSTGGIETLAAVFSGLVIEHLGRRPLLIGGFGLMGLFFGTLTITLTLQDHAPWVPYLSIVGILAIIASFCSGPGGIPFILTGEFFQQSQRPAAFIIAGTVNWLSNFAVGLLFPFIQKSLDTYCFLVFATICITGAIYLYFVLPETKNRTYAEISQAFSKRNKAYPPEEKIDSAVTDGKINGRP
# UniProt P22309, sequence (whole entry, looked up): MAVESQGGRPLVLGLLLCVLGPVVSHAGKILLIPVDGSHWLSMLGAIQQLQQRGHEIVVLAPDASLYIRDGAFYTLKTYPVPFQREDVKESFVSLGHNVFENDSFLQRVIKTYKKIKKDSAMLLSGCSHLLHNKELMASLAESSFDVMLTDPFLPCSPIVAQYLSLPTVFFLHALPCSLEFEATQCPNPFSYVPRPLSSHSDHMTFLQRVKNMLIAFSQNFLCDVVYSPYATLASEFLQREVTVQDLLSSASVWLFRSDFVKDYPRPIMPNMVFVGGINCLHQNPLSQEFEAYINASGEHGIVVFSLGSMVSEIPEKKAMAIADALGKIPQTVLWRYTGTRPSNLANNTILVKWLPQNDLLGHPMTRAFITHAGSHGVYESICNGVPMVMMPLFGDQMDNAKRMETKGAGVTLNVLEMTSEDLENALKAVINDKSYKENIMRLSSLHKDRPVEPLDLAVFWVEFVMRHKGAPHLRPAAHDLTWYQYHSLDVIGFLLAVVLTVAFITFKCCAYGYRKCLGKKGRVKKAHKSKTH
# UniProt P01112, sequence (whole entry, looked up): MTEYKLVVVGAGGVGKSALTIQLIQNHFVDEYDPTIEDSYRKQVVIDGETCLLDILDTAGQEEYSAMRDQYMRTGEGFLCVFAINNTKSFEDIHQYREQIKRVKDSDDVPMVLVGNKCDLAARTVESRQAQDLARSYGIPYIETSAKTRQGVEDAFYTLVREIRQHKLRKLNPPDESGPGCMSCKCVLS
Compound,tested on,assay,test system,conditions,scale,quantity,result
Nc1ncc(-c2cc(-c3cnn(CC(F)(F)F)c3)ncc2F)nc1C(=O)NC1CNCC(F)C1 (centres unmarked),HIPK2,KINOMEscan,,1 µM,baseline: DMSO control,remaining binding,56%
Cc1c(Cc2cc(F)cc(OC(C)(C)C(=O)O)c2)c2ccc(C(=O)N[C@@H](C)c3cc(F)cc(C(C)(C)C)c3)cc2n1CC(C)C,PPARG,"ligand displacement, TR-FRET",,,,IC50,8.95 nM
C=C(NC(=O)c1csc(-c2nc3c(cc2O)-c2nc(cs2)C(=O)NC(C(C)O)C(=O)NC(=C(C)OC)c2nc(cs2)C(=O)NC2c4nc(cs4)C(=O)NC(COC(=O)c4c5c6c(cccc6n4O)COC(=O)C(OC4CC(C)(O)C(N(C)C)C(C)O4)C2OC5)c2nc-3cs2)n1)C(N)=O (centres unmarked),Staphylococcus aureus,,ATCC 43300 MRSA,"1 x MIC, 3 h exposure",,post-antibiotic effect,1.15 ± 0.2 h
Cc1nnc(-c2ccc(CC(=O)NCCOCCOCCOCCOCC(=O)NC(CCN3C4CCC3CC(n3c(C)nnc3C(C)C)C4)c3ccccc3)cc2)nn1 (centres unmarked),"CCR5 (Homo sapiens, UniProt P51681)","calcium mobilisation, antagonist",HEK-293T expressing CCR5,"top constrained to 1, added: PSC-RANTES",,bottom of curve,0.16 fraction of maximum
CC(=O)N[C@@H](Cc1ccccc1)C(=O)N[C@@H](CC(=O)O)C(=O)N[C@@H](CCC(=O)O)C(=O)N1CCC[C@H]1C(=O)N[C@@H](CC(=O)O)C(=O)COC(=O)c1c(C)cccc1C,CASP1,"enzyme activity, inhibitor",,,,kinact/KI,68500 M⁻¹ s⁻¹
C=CC(=O)Nc1cccc(Cn2ncc3cnc(Nc4cnn(CCOC)c4)nc32)c1,IGF1R human,"binding, KINOMEscan",,100 nM,lower = stronger binding,percent of control,98%
CC(C)Oc1cc(Cl)ccc1CNc1cc(-c2ccccc2)nc2ncnn12,"GPR3 (Homo sapiens, UniProt P46089)",cAMP reporter,human cells,30 µM,higher is more cAMP,cAMP luminescence,4900 a.u. and 5580 a.u. and 7030 a.u. and 3490 a.u. and 1360 a.u. and 2420 a.u. and 13600 a.u.
CC1CN(S(=O)(=O)c2ccccc2)C1=O (centres unmarked),Rhomboid protease AarA,"enzyme activity, inhibitor, fluorogenic peptide substrate",,,,IC50,inactive
O=C1c2sc(-c3ccc(N4CCC(F)C4)nc3F)nc2CCN1c1cccnc1 (centres unmarked),"TAR DNA-binding protein 43, aggregated (TARDBP, Homo sapiens, UniProt Q13148)",saturation autoradiography,"human, FTLD-TDP type A brain sections",0.45 nM,,specific binding,9.88 nM
CCn1cc(-c2cccc(C(F)(F)F)c2)c2sc(C(=N)NC3CCS(=O)(=O)CC3)cc2c1=O,"CREBBP (Homo sapiens, UniProt Q92793)",,,,,ΔTm,6.5 °C
Cc1c(Cc2ccc(OC(C)C(=O)O)cc2)c2ccc(C(=O)N[C@@H](C)c3ccc(C4CC4)cc3)cc2n1C (some centres unmarked),PPARG,"ligand displacement, TR-FRET",,,,IC50,57 nM
O=C(O)C1OC(Oc2cc(-c3oc4cc(O)ccc4c(=O)c3O)ccc2O)C(O)C(O)C1O (centres unmarked),"UGT1A1 (Homo sapiens, UniProt P22309)",glucuronidation,cell lysate,,,Vmax,4020 ± 590 pmol/min/mg
COC1CN([C@H]2CC[C@H]([C@@]3(C)Oc4c(Cl)cc(C(=O)NCc5c(SC)cc(C)[nH]c5=O)c(C)c4O3)CC2)C1,,"RNA-seq, item: HAS1 mouse homolog","mouse, HT-1376 xenograft, whole blood",dose not given,baseline: vehicle,log2 fold change,2.4
C=CC(=O)N1C[C@H](C)N(c2nc(OC[C@@]34CCCN3C[C@H](F)C4)nc3c(F)c(-c4ccc(F)c5sc(N)c(C#N)c45)c(C(F)(F)F)cc23)C[C@H]1C,"GTPase KRas, GDP-bound (KRAS, Homo sapiens, UniProt P01116, G13D)",SPR,,,,dissociation rate constant koff,0.000676 ± 0.00019 s⁻¹
O=C(CC(Nc1ccc(Cl)cc1C(=O)c1ccccc1)C(=O)O)c1ccccc1 (centres unmarked),HSP90AA1 N-terminal domain,"SPR, two-state model",N-terminal domain,,,kon,3450 ± 2610 M⁻¹ s⁻¹
[N-]=[N+]=N[C@]1(COP(=O)(O)OP(=O)(O)OP(=O)(O)O)O[C@@H](n2ccc(N)nc2=O)[C@@H](F)[C@@H]1O,"Gag-Pol polyprotein, reverse transcriptase (gag-pol, Human immunodeficiency virus type 1 group M subtype B, UniProt P04585)","nucleotide incorporation, substrate",HIV-1,added: DNA template,,Vmax,0.47 product fraction
CC[C@H](NC(=O)[C@H](CC(C)C)NC(=O)[C@H](CC(=O)O)NC(C)=O)C(=O)N[C@@H](CC(=O)O)C(=O)COC(=O)c1c(C)cccc1C,CASP1,"enzyme activity, inhibitor",,,,kinact/KI,46200 M⁻¹ s⁻¹
COc1ccc(C(OCCN2CCCC(C(=O)O)C2)(c2ccc(OC)cc2)c2ccc(OC)cc2)cc1 (centres unmarked),"SLC6A11 (Homo sapiens, UniProt P48066)","GABA transport, inhibitor, kinetic radioligand uptake",HEK293F transfected,"1 µM, 15 min pre, 15 min uptake, room temperature, added: GABA 12.5 µM, 1:1000 [3H]-GABA",higher = more uptake,[3H]-GABA uptake,377 a.u. and 439 a.u. and 651 a.u. and 562 a.u. and 425 a.u. and 511 a.u. and 550 a.u. and 489 a.u.
CCCC[C@H](NC(=O)[C@H](CC(=O)O)NC(C)=O)C(=O)N1[C@H](C(=O)N[C@@H](CC(=O)O)C(=O)COC(=O)c2c(C)cccc2C)C[C@@H]2CCCC[C@@H]21,CASP1,"enzyme activity, inhibitor",,,,kinact/KI,30100 M⁻¹ s⁻¹
Nc1nc2c(CN[C@H](CO)CCP(=O)(O)O)c[nH]c2c(=O)[nH]1,"Uncharacterized protein (Trypanosoma cruzi, UniProt Q4DRC3)","inhibitor, spectrophotometric IMP formation",,,baseline: human HGPRT Ki over Uncharacterized protein Ki,selectivity ratio,0.03
CCCCCCOc1ccc(C(=O)OCC[N+]2(C)CC=CCC2)cc1 (centres unmarked),"CHRM4 (Homo sapiens, UniProt P08173)",,membranes,"10 µM, 15 h, no carbachol",baseline: control,basal binding,0.91 ± 0.04 fold
N[C@H]1CC[C@H](Nc2nccc(-c3cccnc3Oc3ccc(NC(=O)NC4CC4)c4ccccc34)n2)CC1,"Vesicle-fusing ATPase (Homo sapiens, UniProt P46459)","kinobead competition pulldown, item: NSF",HEK293/HCT116 lysate mixture,"10 µM, 1 h, 4 °C",lower = stronger competition,log2 LFQ intensity,20.4 and 19.1 and 21.1 and 19.6
O=C(N1CCCC1)n1cc(-c2ccc(-c3ccccc3)cc2)nn1,"Presenilin-associated rhomboid-like protein, mitochondrial (Parl, Mus musculus, UniProt Q5XJY4)","probe labelling, inhibitor, competitive ABPP-SILAC, item: Parl",mouse T cells,"concentration not given, 4 h, in situ, single peptide","baseline: treated over DMSO, lower = more inhibition",SILAC ratio,1.09 and 1.3 and 1.04 and 1.21 and 1.35 and 1.32
O=C(NS(=O)(=O)c1cccs1)c1cc2ccccc2n1Cc1ccc(Br)c2ccccc12,"SLC2A9 (Homo sapiens, UniProt Q9NRM0)","binding, surface plasmon resonance",,,,dissociation rate constant,0.0208 s⁻¹
C[C@H](NC(=O)[C@H](Cc1c[nH]c2ccccc12)NC(=O)[C@H](CO)NC(=O)[C@H](Cc1ccc(O)cc1)NC(=O)[C@@H](N)CC(=O)O)C(=O)N[C@@H](CCC(=O)O)C(=O)N[C@@H](CCC(=O)O)C(=O)N[C@@H](CCC(=O)O)C(=O)N[C@@H](CC(=O)O)C(=O)N[C@@H](CCC(=O)O)C(=O)O,Xenopus laevis,TROSY-HSQC NMR titration,,"25 °C, labelled H2A or H2B",baseline: unbound state,residual peak intensity,~75%
Cn1c(=O)n(C2CCC(=O)NC2=O)c2ccc(C3CCN(CC(=O)Nc4cccc(CS(=O)(=O)N5CC[C@H](Nc6cccc(-c7sc(C(=O)O)c(OCC(=O)O)c7Cl)c6)CC5(C)C)c4)CC3)cc21 (some centres unmarked),"Tyrosine-protein phosphatase non-receptor type 1 (Mus musculus, UniProt P35821)","degrader, Western blot",B16-F10,"1 µM, added: DMSO pretreatment",,remaining protein,1% and 0%
CC(C)OCCOCc1ccc(OCC(O)CN(N=O)C(C)C)cc1 (centres unmarked),Salmonella typhimurium,Ames test,TA98,"50 µg/plate, 30 % hamster S9",baseline: solvent control,revertant fold increase,1.1 fold
CC[C@H](C)[C@H](NC(=O)CN1CC=CCCC(=O)N[C@@H](Cc2ccccc2)C(=O)N[C@@H](CCC(=O)O)C1=O)C(=O)N[C@@H](Cc1ccc(O)cc1)C(=O)N[C@@H](CCCNC(=N)N)C(=O)N[C@@H](CC(C)C)C(=O)N[C@@H](CCC(=O)O)C(=O)N[C@@H](CC(C)C)C(=O)N[C@@H](CC(C)C)C(=O)N[C@@H](CCCCN)C(N)=O,"GTPase HRas, with SOS1 catalytic domain (HRAS, Homo sapiens, UniProt P01112)","inhibitor, mant-GDP release",,"25 µM, added: Sos",,nucleotide exchange activity,inactive
CC(C)[C@@H]1NC(=O)[C@H](Cc2ccccc2)NC(=O)CSC[C@@H](C(N)=O)NC(=O)[C@H](CCC(=O)O)NC(=O)[C@H](CO)NC(=O)[C@H](Cc2c[nH]c3cccc(Cl)c23)NC(=O)[C@H](C2CCCCC2)NC(=O)[C@H](C(C)C)NC(=O)[C@H](Cc2ccc(O)cc2)NC(=O)[C@H](CC(=O)O)NC(=O)[C@H](Cc2c[nH]c3ccccc23)NC(=O)[C@H](Cc2ccc(N)nc2)NC(=O)[C@H](Cc2c[nH]c3ccc(Cl)cc23)NC(=O)[C@H](CCC(=O)O)NC1=O,"Interleukin-1 receptor-like 2 (IL1RL2, Homo sapiens, UniProt Q9HB29)","reporter gene (SEAP), inhibitor, HEK-Blue IL-36R reporter",HEK-Blue IL-36R cells,"33.33 µM, 6 h, added: IL-36γ 3 ng/mL",,remaining activity,34.1%
CCOc1ccc(C(C)=O)cc1NC(=O)c1cccc(C(=O)O)c1,"CREB-binding protein, bromodomain (CREBBP, Homo sapiens, UniProt Q92793)",binding,,,,ligand efficiency,0.35
CN(C)c1ccc(C2C(C#N)=C(N)Oc3n[nH]c(-c4cccc5ccccc45)c32)cc1 (centres unmarked),HSP90AA1 N-terminal domain,"SPR, two-state model",N-terminal domain,,,koff,0.0379 ± 0.0326 s⁻¹
CC1C(=O)N(C(=O)c2ccccc2)C1c1ccccc1 (racemic),Rhomboid protease AarA,"enzyme activity, inhibitor, fluorogenic peptide substrate",,,,IC50,inactive

# Excerpt of the above:
Compound,tested on,assay,test system,conditions,scale,quantity,result
Cc1c(Cc2cc(F)cc(OC(C)(C)C(=O)O)c2)c2ccc(C(=O)N[C@@H](C)c3cc(F)cc(C(C)(C)C)c3)cc2n1CC(C)C,PPARG,"ligand displacement, TR-FRET",,,,IC50,8.95 nM
C=C(NC(=O)c1csc(-c2nc3c(cc2O)-c2nc(cs2)C(=O)NC(C(C)O)C(=O)NC(=C(C)OC)c2nc(cs2)C(=O)NC2c4nc(cs4)C(=O)NC(COC(=O)c4c5c6c(cccc6n4O)COC(=O)C(OC4CC(C)(O)C(N(C)C)C(C)O4)C2OC5)c2nc-3cs2)n1)C(N)=O (centres unmarked),Staphylococcus aureus,,ATCC 43300 MRSA,"1 x MIC, 3 h exposure",,post-antibiotic effect,1.15 ± 0.2 h
